Assay results pooled from the literature.
Protocols differ between the studies behind these lines. ± gives the spread as reported. Values after ≈ are worked out from the molar mass of the structure shown.

| SMILES | test | system | conditions | how to read | endpoint | value |
| --- | --- | --- | --- | --- | --- | --- |
| CN1CC[C@@H](c2c(O)cc(O)c3c(=O)cc(-c4ccc(C(F)(F)F)cc4Cl)oc23)[C@@H]1CO | refers to: Anorexia | relapsed or refractory haematological malignancies | oral, dose not given, all grades |  | adverse event incidence | 17.5% |
| COc1cc(Nc2ncc(F)c(Nc3ccc4c(n3)NC(=O)C(C)(C)O4)n2)cc(OC)c1OC |  | HEPES buffer | 3 h, pH 7.4, 0.1% DMSO |  | solubility | 12.1 µM (≈ 5.69 µg/mL) |
| CCN1CCN(Cc2ccc(Nc3ncc(F)c(-c4cc(F)c5nc6n(c5c4)[C@H](C)CCC6)n3)nc2)CC1 |  | patients with advanced solid tumours | dose not given, phase Ia monotherapy |  | decreased appetite grade ≥3 | 4.2% |
| Cn1ncc(-c2nc(N[C@H]3CC[C@H](N)CC3)ncc2Cl)c1CC1CC1 | refers to: sepsis grade 3 or higher | human patients phase I | dose not given |  | adverse event incidence | 13% |
| CCN(CCO)CCCC(C)Nc1ccnc2cc(Cl)ccc12 (stereo not drawn) |  | newly diagnosed glioblastoma patients | oral, 400 mg/dose, grade 2, together with: radiotherapy and temozolomide |  | nausea patients | 14% |
| O=S(=O)(Nc1ccccc1)c1ccc(NC(=S)Nc2ccccc2)cc1 | refers to: TBIL | female mouse, blood | oral, 5 mg/kg daily, 14 days |  | blood chemistry level | 0.7 mg/dL |
| CCNc1nc(N2CC(=O)Nc3cc(OC)ccc32)c2cccnc2n1 |  | DPBS | overnight, pH 7.4, room temperature |  | aqueous solubility | 23 to 25 µg/mL (≈ 65.6 to 71.4 µM) |
| O[C@H]1CCCN[C@@H]1CCCn1cnc2c(Cl)c(Cl)ccc21 |  | healthy CYP2D6 intermediate metabolizers, plasma | oral, 150 mg single dose, alone |  | median AUC(0-12) | 739 ng·h/mL |
| COc1cc2c(cc1OC)CN(CCc1ccc(NC(=O)c3cccc4c(=O)c5cccc(OC)c5[nH]c34)cc1)CC2 |  | CD-1 mouse, male, plasma | intraperitoneal, 10 mg/kg |  | Tmax | 6 h |
| CO[C@H]1C[C@@H]2CC[C@@H](C)[C@@](O)(O2)C(=O)C(=O)N2CCCC[C@H]2C(=O)O[C@H]([C@H](C)C[C@@H]2CC[C@@H](OC(=O)NCCOCCOCCOCCOCCOCCOCCOCCOCCC(=O)N3CCc4cc(Cn5nc(-c6ccc7oc(N)nc7c6)c6c(N)ncnc65)ccc4C3)[C@H](OC)C2)C[C@@H](O)[C@H](C)/C=C(\C)[C@@H](O)[C@@H](OC)C(=O)[C@H](C)C[C@H](C)/C=C/C=C/C=C/1C |  | patients with advanced solid tumours | intravenous, 16 mg weekly, any grade |  | nausea incidence | 75% |
| CC(=O)c1c(C)c2cnc(Nc3ccc(C4CCN(CCS(C)(=O)=O)CC4)cn3)nc2n(C2CCCC2)c1=O |  | human, plasma | oral, 50 mg, day 1 single dose |  | elimination rate constant | 1.67e-05 s⁻¹ |
| CCCSc1ccc2nc(NC(=O)OC)[nH]c2c1 |  | mouse, blood | oral, 50 mg/kg, tolerability, mean |  | MCHC | 378 g/L |
| Clc1cc(Cl)c(-c2cc(Cl)c(Cl)c(Cl)c2Cl)cc1Cl |  | PDMS-water partitioning | PCB compilation | reference: maximum over minimum K | literature range factor | 2 |
| O=C(Nc1ccccc1)C1CCN(C(=O)Oc2cccnc2)CC1 | Bond-Lader VAS | healthy women | 20 mg | reference: pre-dose baseline, direction not given | change in well-coordinated–clumsy score | -7.6 |
| CN1CCN(c2ccc(Nc3nccc(-c4ccncc4)n3)cc2C(F)(F)F)CC1 |  | zebrafish embryos | 25 µM, 5 days |  | toxicity | 0% |
| Nc1nc2cc(-c3ccc4ncc(C(=O)N5CCOCC5)n4c3)ccc2o1 |  | human, advanced solid tumours | 100–300 mg once daily, any cause, grade ≥3 |  | elevated ALT adverse events | 13% |
| COc1ncccc1-c1cnn2ccc(N3CCN(C(=O)OC(C)C)CC3)nc12 |  | rat, STZ model, plasma | oral, 1 mg/kg, 240 min |  | free drug concentration | 2.3 nM |
| COc1ccc(-c2c(-c3ccc(C#N)c(F)c3)nc(N3CCC(N)CC3)n(C)c2=O)cc1F | refers to: Pruritus | relapsed/refractory marginal zone lymphoma patients | oral, 60 mg, any grade, dose expansion |  | treatment-related adverse event incidence | 0% |
| CC1(C)[C@H](C=C(Cl)Cl)[C@H]1C(=O)OCc1cccc(Oc2ccccc2)c1 | refers to: CYP2B6 | human, age 1 year, recombinant human CYP2B6 | 0.1 µM |  | enzyme contribution to clearance | 0.05% |
| CC(C)C[C@@H]1NC(=O)[C@H](CC(N)=O)NC(=O)[C@H](CCCNC(=N)N)NC(=O)[C@H]([C@@H](C)O)NC(=O)[C@@H]2CSSC[C@@H]3NC(=O)[C@H]([C@@H](C)O)NC(=O)CNC(=O)CNC(=O)[C@H](C(C)C)NC(=O)[C@@H]4CSSC[C@H](NC(=O)[C@H](CCCCN)NC(=O)[C@H](CSSC[C@H](NC(=O)[C@H](C(C)C)NC(=O)[C@@H]5CCCN5C(=O)[C@H](CC(C)C)NC1=O)C(=O)NCC(=O)N[C@@H](CCC(=O)O)C(=O)N[C@@H]([C@@H](C)O)C(=O)N4)NC(=O)CNC(=O)[C@@H]1CCCN1C(=O)[C@H]([C@@H](C)O)NC(=O)[C@H](CC(N)=O)NC3=O)C(=O)N[C@@H](CO)C(=O)N[C@@H](Cc1c[nH]c3ccccc13)C(=O)N1CCC[C@H]1C(=O)N[C@@H](C(C)C)C(=O)N2 | HPLC | ammonium bicarbonate 0.1 M | 180 µM, 14 days, pH 9.0, 37 °C, deamidation stability |  | remaining peptide | 90.1 ± 4.5% |
| COc1cc2c(Oc3ccc4[nH]c(C)cc4c3F)ccnc2cc1OCC1(N)CC1 | refers to: grade 1 or 2 bone pain | paediatric high-risk refractory sarcoma | 8 mg |  | incidence of adverse event | 6.7% |
| Clc1cc(Cl)c(-c2cc(Cl)c(Cl)cc2Cl)cc1Cl |  | fresh water | 20 °C |  | log K(PDMS-water) | 6.42 ± 0.06 |
| Cc1cccc(Cn2nc(C3CC3)c3c(NC(=O)c4cnc5cc(OCCN6CCN(C)CC6)ccn45)cccc32)n1 | CTCAE v4.03, refers to: ALT increased | PD-1/PD-L1 inhibitor-refractory patients | oral, dose not given, together with: pembrolizumab IV every 3 weeks |  | all-cause adverse events | 15.8% |
| [O-][S+]1CCc2nc(N3CCC(c4ncc(Cl)cn4)CC3)nc(NC3(CO)CCC3)c21 (stereo not drawn) | refers to: Nausea | healthy male humans | multiple doses, all groups |  | adverse event incidence | 6.3% |
| O=[N+]([O-])c1ccc2c(c1)S(=O)(=O)C=C2 |  | male C57BL/6 mice, blood | intraperitoneal, 20 mg/kg, day 8, group average |  | red cell distribution width CV | 0.14% |
| C[C@]1(CO)Cc2ncn(-c3ccc(C#N)c(Cl)c3)c2C(=O)O1 |  | healthy Japanese adults, plasma | 40 mg once daily, after first dose, multiple dose |  | AUC(0-inf) | 15.8 µM·h |
| CCN1[C@@H](C(=O)NC23CCC(C(=O)O)(CC2)CC3)[C@H](c2cccc(Cl)c2F)[C@]2(C(=O)Nc3cc(Cl)ccc32)C12CCCCC2 |  | patients with advanced solid tumours | oral, 200 mg |  | Embolism incidence | 50% |
